Published values collected from several papers.
Lines come from different studies, so protocols differ. ± gives the spread as reported.

N=C(N)NCCC[C@@H](NC(=O)[C@H](Cc1ccc(O)cc1)NC(=O)CC[P+](c1ccccc1)(c1ccccc1)c1ccccc1)C(=O)N[C@@H](Cc1ccccc1)C(=O)N[C@@H](CCCCN)C(N)=O — half-life (trypsin cleavage; 1 µM, pH 7.4, room temperature): 20 h
CCCCCCCC(=O)OC[C@H](NC(=O)[C@H](CO)NC(=O)CN)C(=O)N[C@@H](Cc1ccccc1)C(=O)N[C@@H](CC(C)C)C(=O)N[C@@H](CO)C(=O)N1CCC[C@H]1C(=O)N[C@@H](CCC(=O)O)C(=O)N[C@@H](Cc1cnc[nH]1)C(=O)N[C@@H](CCC(N)=O)C(=O)N[C@@H](CCCNC(=N)N)C(=O)N[C@H](C(=O)N[C@@H](CCC(N)=O)C(=O)N[C@@H](CCC(N)=O)C(=O)N[C@@H](CCCNC(=N)N)C(=O)N[C@@H](CCCCN)C(=O)N[C@@H](CCC(=O)O)C(=O)N[C@@H](CO)C(=O)N[C@@H](CCCCN)C(=O)N[C@@H](CCCCN)C(=O)N1CCC[C@H]1C(=O)N1CCC[C@H]1C(=O)N[C@@H](C)C(=O)N[C@@H](CCCCN)C(=O)N[C@@H](CC(C)C)C(=O)N[C@@H](CCC(N)=O)C(=O)N1CCC[C@H]1C(=O)N[C@@H](CCCNC(=N)N)C(=O)O)C(C)C — half-life (two-site ELISA; healthy men and women, plasma; continuous intravenous infusion, 3 µg/kg/h, 65 min infusion): 0.167 ± 0.05 h
COc1ccc2nc(C)cc(OCC(=O)Nc3ccccc3OC)c2c1 — half-life (human liver microsomes): 0.278 h
CC(COC(=O)c1ccccc1)OC(=O)C(N)C(C)C (mixture of isomers) — half-life (isotonic buffer; pH 6.0, 37 °C): > 30 h
CC[C@H](C)[C@@H]1NC(=O)[C@H](CC(N)=O)NC(=O)[C@@H]2CCCN2C(=O)[C@@H](NC(=O)[C@H](CC(N)=O)NC(=O)[C@@H](N)CCC(N)=O)COC(=O)[C@H](CCSC)NC(=O)[C@H](Cc2c[nH]c3ccccc23)NC(=O)[C@H](CCC(N)=O)NC(=O)CNC(=O)[C@H](Cc2ccccc2)N(C)C1=O — half-life (human plasma diluted with PBS; 0.28 mM, pH 7.2, 37 °C): < 0.5 h
C[C@]12C(=O)[C@](C)(C(c3ccccc3)=C1c1ccccc1)C1(Br)C(=O)N(CCN)C(=O)C12 (stereo partly drawn) — half-life (CO release, HPLC; TRIS-sucrose buffer; pH 7.4, 37 °C): 0.317 h
Cc1ccc2nc(C(F)(F)F)c(C(=O)NCc3cccc(Cl)c3)n2c1 — half-life (mouse liver microsomes): < 0.05 h
CC(=O)N[C@@H](Cc1ccc(O)cc1)C(=O)N[C@@H](CC(=O)O)C(=O)NCCC(=O)N[C@@H](Cc1ccccc1)C(=O)N[C@@H](Cc1ccc(O)cc1)C(=O)NCCC(=O)N[C@@H](Cc1ccc(O)cc1)C(=O)N[C@H](C(=O)N[C@H](C(=O)N[C@@H](Cc1ccccc1)C(=O)N[C@@H](Cc1c[nH]cn1)C(=O)N[C@H](C(=O)N[C@@H](C)C(=O)N[C@H](C(N)=O)[C@@H](C)O)C(C)C)[C@@H](C)O)C(C)C — half-life (LC-MS; human serum; 10 µM, 37 °C): 0.53 h
Cc1ccc(OCCN(C)C)cc1C(=O)N[C@H](C)c1cc(-c2cnn(CCN3CCOCC3)c2)cc(-c2ccn(C)n2)c1 — half-life (mouse liver microsomes): > 2.42 h
Cc1ccc2nc(C)c(C(=O)NCc3ccc(C(F)(F)F)cc3)n2c1 — half-life (marmoset liver microsomes; 2 µM): 0.167 h
N=C(N)NCCC[C@@H]1NC(=O)[C@H](CCCNC(=N)N)NC(=O)[C@H](CCCNC(=N)N)NC(=O)[C@H](CCCNC(=N)N)NC(=O)[C@H](Cc2c[nH]c3ccccc23)NC(=O)[C@H](CCCNC(=N)N)NC(=O)[C@H](CCCNC(=N)N)NC(=O)[C@@H](N)CCCn2cc(nn2)C[C@@H](C(N)=O)NC1=O — half-life (trypsin degradation, HPLC; PBS; pH 7.4, 37 °C, added: trypsin 0.1 ng/mL): 0.333 h
CCCCCc1cc(OC(=O)C(NC(=O)CCC(=O)O)C(C)C)c2c(c1)OC(C)(C)C1CCC(C)=CC21 (stereo not drawn) — half-life (Cremophor RH 40 in isotonic phosphate buffer; pH 7.3, 25 °C): 1560 h
CC[C@H](C)[C@H](NC(=O)[C@@H](NC(=O)[C@H](CC(N)=O)NC(=O)[C@H](CCC(N)=O)NC(=O)[C@@H]1CCCN1C(=O)[C@@H](NC(=O)[C@H](Cc1ccc(O)cc1)NC(=O)CNC(=O)[C@H](Cc1ccc(O)cc1)NC(=O)[C@H](Cc1c[nH]c2ccccc12)NC(=O)[C@H](Cc1c[nH]cn1)NC(=O)[C@H](Cc1ccc(O)cc1)NC(=O)CCOCCOCCOCCOCCOCCOCCC(=O)NCCCN(CCCNC(=O)CCOCCOCCOCCOCCOCCOCCC(=O)N[C@@H](Cc1ccc(O)cc1)C(=O)N[C@@H](Cc1c[nH]cn1)C(=O)N[C@@H](Cc1c[nH]c2ccccc12)C(=O)N[C@@H](Cc1ccc(O)cc1)C(=O)NCC(=O)N[C@@H](Cc1ccc(O)cc1)C(=O)N[C@H](C(=O)N1CCC[C@H]1C(=O)N[C@@H](CCC(N)=O)C(=O)N[C@@H](CC(N)=O)C(=O)N[C@H](C(=O)N[C@H](C(=O)O)[C@@H](C)CC)C(C)C)[C@@H](C)O)CC(=O)NCCOCCOCCOCCOCCC(=O)N[C@@H](CCCCNC(=O)CC[C@H](C(=O)O)N1CCN(CC(=O)O)CCN(CC(=O)O)CC1)C(N)=O)[C@@H](C)O)C(C)C)C(=O)O [gallium-68 labelled] — half-life (radio-HPLC; human serum; 37 °C): 1.4 h
CC(C)C[C@H](NC(=O)[C@H](CCCCN)NC(=O)[C@H](CCCCNC(=O)[C@H](CC(C)C)NC(=O)[C@H](CCCCN)NC(=O)[C@H](CCCCNC(=O)[C@H](CC(C)C)NC(=O)[C@H](CCCCN)NC(=O)[C@H](CCCCNC(=O)[C@H](CC(C)C)NC(=O)[C@@H](N)CCCCN)NC(=O)[C@H](CC(C)C)NC(=O)[C@@H](N)CCCCN)NC(=O)[C@H](CC(C)C)NC(=O)[C@H](CCCCN)NC(=O)[C@H](CCCCNC(=O)[C@H](CC(C)C)NC(=O)[C@@H](N)CCCCN)NC(=O)[C@H](CC(C)C)NC(=O)[C@@H](N)CCCCN)NC(=O)[C@H](CC(C)C)NC(=O)[C@H](CCCCN)NC(=O)[C@H](CCCCNC(=O)[C@H](CC(C)C)NC(=O)[C@H](CCCCN)NC(=O)[C@H](CCCCNC(=O)[C@H](CC(C)C)NC(=O)[C@@H](N)CCCCN)NC(=O)[C@H](CC(C)C)NC(=O)[C@@H](N)CCCCN)NC(=O)[C@H](CC(C)C)NC(=O)[C@H](CCCCN)NC(=O)[C@H](CCCCNC(=O)[C@H](CC(C)C)NC(=O)[C@@H](N)CCCCN)NC(=O)[C@H](CC(C)C)NC(=O)[C@@H](N)CCCCN)C(N)=O — half-life (RP-UPLC; human serum 25%; 200 µM, 37 °C): ~15 h
CC[C@H](C)[C@@H]1NC(=O)[C@H](Cc2ccc(O)cc2)NC(=O)[C@@H](N)CSCSC[C@@H](C(=O)N2CCC[C@H]2C(=O)N[C@@H](CC(C)C)C(=O)NCC(N)=O)NC(=O)[C@H](CC(N)=O)NC(=O)[C@H](CCC(N)=O)NC1=O — half-life (phosphate buffer; 0.1 mg/mL, pH 9.0, 40 °C): 206 h
Nc1nc2c(ncn2COCCOC(=O)CCC(=O)OC[C@H](N)C(=O)O)c(=O)[nH]1 — half-life (substrate; rabbit cornea homogenate; 0.133 mM, pH 7.4, 34 °C): 3.5 ± 0.4 h
CC[C@H](C)[C@@H]1NC(=O)[C@H](CCCNC(=N)N)NC(=O)[C@H](CC(=O)O)NC(=O)[C@H](CCSC)NC(=O)[C@H](CCCCN)NC(=O)[C@H](CCCNC(=N)N)NC(=O)CNC(=O)[C@H](Cc2ccccc2)NC(=O)[C@@H](NC(=O)CNC(=O)[C@H](CO)NC(=O)CNC(=O)[C@H](CCC(N)=O)NC(=O)[C@@H](NC(=O)[C@H](CCSC)NC(=O)[C@H](CCCCN)NC(=O)[C@@H]2CCCN2C(=O)[C@@H](N)CO)C(C)C)CSSC[C@@H](C(=O)N[C@@H](CCCCN)C(=O)N[C@H](C(=O)N[C@@H](CC(C)C)C(=O)N[C@@H](CCCN=C(N)N)C(=O)N[C@@H](CCCN=C(N)N)C(=O)N[C@@H](Cc2cnc[nH]2)C(=O)O)C(C)C)NC(=O)CNC(=O)[C@H](CC(C)C)NC(=O)CNC(=O)[C@H](CO)NC(=O)[C@H](CO)NC(=O)[C@H](CO)NC(=O)[C@H](CO)NC1=O — half-life (human kidney membranes; 1 µM, pH 7.5, 37 °C): 0.07 h
CC(=O)N[C@@H](Cc1ccc(O)cc1)C(=O)N[C@@H](CC(=O)O)C(=O)N[C@H]1CCC[C@@H]1C(=O)N[C@@H](Cc1ccccc1)C(=O)N[C@@H](Cc1ccc(O)cc1)C(=O)N[C@H]1CCC[C@@H]1C(=O)N[C@@H](Cc1ccc(O)cc1)C(=O)N[C@H](C(=O)N[C@H](C(=O)N[C@@H](Cc1ccccc1)C(=O)N[C@@H](Cc1c[nH]cn1)C(=O)N[C@H](C(=O)N[C@@H](C)C(=O)N[C@H](C(N)=O)[C@@H](C)O)C(C)C)[C@@H](C)O)C(C)C — half-life (LC-MS; human serum; 10 µM, 37 °C): 2.6 h
CC(COC(=O)c1ccccc1)OC(=O)C(N)Cc1ccccc1 (mixture of isomers) — half-life (pH 7.4): ~21 h
Cc1cccc(-c2nc(Nc3ccncn3)c3sccc3n2)n1 — half-life (mouse liver microsomes): < 0.05 h
C=CCc1ccc(OC(=O)COC(=O)Cn2cnc3c2c(=O)n(C)c(=O)n3C)c(OC)c1 — half-life (phosphate buffer; 75 µM, pH 7.4, 37 °C): 11.3 h
CSCC[C@H](NC(=O)CNC(=O)CNC(=O)[C@H](CO)NC(=O)[C@H](CC(C)C)NC(=O)[C@@H]1CCCN1C(=O)[C@H](CO)NC(=O)[C@H](CC(N)=O)NC(=O)[C@H](CC(C)C)NC(=O)[C@H](C)NC(=O)[C@@H](NC(=O)[C@H](CC(C)C)NC(=O)[C@H](Cc1c[nH]cn1)NC(=O)[C@H](CC(C)C)NC(=O)[C@@H](NC(=O)[C@@H]1CCCN1C(=O)[C@H](CCC(N)=O)NC(=O)[C@H](Cc1ccccc1)NC(=O)[C@H](CC(=O)O)NC(=O)[C@H](CCCNC(=N)N)NC(=O)[C@H](Cc1c[nH]cn1)NC(=O)[C@H](CO)NC(=O)[C@H](Cc1c[nH]cn1)NC(=O)[C@H](CCSC)NC(=O)[C@H](CC(=O)O)NC(=O)CNC(=O)[C@H](CCCNC(=N)N)NC(=O)[C@H](CC(=O)O)NC(=O)CNC(=O)[C@@H](N)CCCNC(=N)N)C(C)C)C(C)C)C(N)=O — half-life (metabolic stability; human whole blood; 20 µg/mL, 37 °C): 0.232 ± 0.00875 h
CC(C)(N)CNC(=O)O[C@H]1CCCC2(C1)OOC1(O2)C2CC3CC(C2)CC1C3 (stereo partly drawn) — half-life (human liver microsomes): > 2 h
N=C(N)NCCCCCCN1CCC23c4c5ccc(O)c4OC2c2nc4ccccc4cc2CC3(O)C1C5 (stereo not drawn) — half-life (human plasma; 10 µM): > 8 h
COc1ccc(CCNc2cc(-c3ccccc3)nc3ncnn23)cc1 — half-life (human liver microsomes): 0.413 h
CC(C)(C)NC(=O)[C@@H]1C[C@@H]2CCCC[C@@H]2CN1C[C@@H](OC(=O)CCC(=O)OC[C@H](O)[C@H]1OC(=O)C(O)=C1O)[C@H](Cc1ccccc1)NC(=O)[C@H](CC(N)=O)NC(=O)c1ccc2ccccc2n1 — half-life (pH 7.4): 9.65 ± 0.3 h
C#Cc1c(F)ccc2cc(O)cc(-c3ncc4c(N5CC6CCC(C5)N6C(=O)/C(C)=C(/C)C(=O)OCCCC)nc(OC[C@@]56CCCN5C[C@H](F)C6)nc4c3F)c12 — half-life (item: prodrug disappearance; mouse whole blood; 60 min): stable
Cc1ccc(OCCN(C)C)cc1C(=O)N[C@H](C)c1cc(-c2cnn(C)c2)cc(-c2cncs2)c1 — half-life (mouse liver microsomes): 0.438 h
CC(C)[C@H](N)C(=O)OCOC(=O)c1ccccc1.O=C(O)C(F)(F)F — half-life (isotonic buffer; pH 4.0, 37 °C): 21.8 h
N#Cc1ccc(NC(=O)c2cccnc2)cc1Cl — half-life (plasma stability; human plasma; 5 µM, 37 °C): > 2 h
